Experimental data of several laboratories.
Each line is one published result; not all experiments were run side by side. ± gives the spread as reported.
UniProt Q5T4S7, sequence (whole entry, looked up): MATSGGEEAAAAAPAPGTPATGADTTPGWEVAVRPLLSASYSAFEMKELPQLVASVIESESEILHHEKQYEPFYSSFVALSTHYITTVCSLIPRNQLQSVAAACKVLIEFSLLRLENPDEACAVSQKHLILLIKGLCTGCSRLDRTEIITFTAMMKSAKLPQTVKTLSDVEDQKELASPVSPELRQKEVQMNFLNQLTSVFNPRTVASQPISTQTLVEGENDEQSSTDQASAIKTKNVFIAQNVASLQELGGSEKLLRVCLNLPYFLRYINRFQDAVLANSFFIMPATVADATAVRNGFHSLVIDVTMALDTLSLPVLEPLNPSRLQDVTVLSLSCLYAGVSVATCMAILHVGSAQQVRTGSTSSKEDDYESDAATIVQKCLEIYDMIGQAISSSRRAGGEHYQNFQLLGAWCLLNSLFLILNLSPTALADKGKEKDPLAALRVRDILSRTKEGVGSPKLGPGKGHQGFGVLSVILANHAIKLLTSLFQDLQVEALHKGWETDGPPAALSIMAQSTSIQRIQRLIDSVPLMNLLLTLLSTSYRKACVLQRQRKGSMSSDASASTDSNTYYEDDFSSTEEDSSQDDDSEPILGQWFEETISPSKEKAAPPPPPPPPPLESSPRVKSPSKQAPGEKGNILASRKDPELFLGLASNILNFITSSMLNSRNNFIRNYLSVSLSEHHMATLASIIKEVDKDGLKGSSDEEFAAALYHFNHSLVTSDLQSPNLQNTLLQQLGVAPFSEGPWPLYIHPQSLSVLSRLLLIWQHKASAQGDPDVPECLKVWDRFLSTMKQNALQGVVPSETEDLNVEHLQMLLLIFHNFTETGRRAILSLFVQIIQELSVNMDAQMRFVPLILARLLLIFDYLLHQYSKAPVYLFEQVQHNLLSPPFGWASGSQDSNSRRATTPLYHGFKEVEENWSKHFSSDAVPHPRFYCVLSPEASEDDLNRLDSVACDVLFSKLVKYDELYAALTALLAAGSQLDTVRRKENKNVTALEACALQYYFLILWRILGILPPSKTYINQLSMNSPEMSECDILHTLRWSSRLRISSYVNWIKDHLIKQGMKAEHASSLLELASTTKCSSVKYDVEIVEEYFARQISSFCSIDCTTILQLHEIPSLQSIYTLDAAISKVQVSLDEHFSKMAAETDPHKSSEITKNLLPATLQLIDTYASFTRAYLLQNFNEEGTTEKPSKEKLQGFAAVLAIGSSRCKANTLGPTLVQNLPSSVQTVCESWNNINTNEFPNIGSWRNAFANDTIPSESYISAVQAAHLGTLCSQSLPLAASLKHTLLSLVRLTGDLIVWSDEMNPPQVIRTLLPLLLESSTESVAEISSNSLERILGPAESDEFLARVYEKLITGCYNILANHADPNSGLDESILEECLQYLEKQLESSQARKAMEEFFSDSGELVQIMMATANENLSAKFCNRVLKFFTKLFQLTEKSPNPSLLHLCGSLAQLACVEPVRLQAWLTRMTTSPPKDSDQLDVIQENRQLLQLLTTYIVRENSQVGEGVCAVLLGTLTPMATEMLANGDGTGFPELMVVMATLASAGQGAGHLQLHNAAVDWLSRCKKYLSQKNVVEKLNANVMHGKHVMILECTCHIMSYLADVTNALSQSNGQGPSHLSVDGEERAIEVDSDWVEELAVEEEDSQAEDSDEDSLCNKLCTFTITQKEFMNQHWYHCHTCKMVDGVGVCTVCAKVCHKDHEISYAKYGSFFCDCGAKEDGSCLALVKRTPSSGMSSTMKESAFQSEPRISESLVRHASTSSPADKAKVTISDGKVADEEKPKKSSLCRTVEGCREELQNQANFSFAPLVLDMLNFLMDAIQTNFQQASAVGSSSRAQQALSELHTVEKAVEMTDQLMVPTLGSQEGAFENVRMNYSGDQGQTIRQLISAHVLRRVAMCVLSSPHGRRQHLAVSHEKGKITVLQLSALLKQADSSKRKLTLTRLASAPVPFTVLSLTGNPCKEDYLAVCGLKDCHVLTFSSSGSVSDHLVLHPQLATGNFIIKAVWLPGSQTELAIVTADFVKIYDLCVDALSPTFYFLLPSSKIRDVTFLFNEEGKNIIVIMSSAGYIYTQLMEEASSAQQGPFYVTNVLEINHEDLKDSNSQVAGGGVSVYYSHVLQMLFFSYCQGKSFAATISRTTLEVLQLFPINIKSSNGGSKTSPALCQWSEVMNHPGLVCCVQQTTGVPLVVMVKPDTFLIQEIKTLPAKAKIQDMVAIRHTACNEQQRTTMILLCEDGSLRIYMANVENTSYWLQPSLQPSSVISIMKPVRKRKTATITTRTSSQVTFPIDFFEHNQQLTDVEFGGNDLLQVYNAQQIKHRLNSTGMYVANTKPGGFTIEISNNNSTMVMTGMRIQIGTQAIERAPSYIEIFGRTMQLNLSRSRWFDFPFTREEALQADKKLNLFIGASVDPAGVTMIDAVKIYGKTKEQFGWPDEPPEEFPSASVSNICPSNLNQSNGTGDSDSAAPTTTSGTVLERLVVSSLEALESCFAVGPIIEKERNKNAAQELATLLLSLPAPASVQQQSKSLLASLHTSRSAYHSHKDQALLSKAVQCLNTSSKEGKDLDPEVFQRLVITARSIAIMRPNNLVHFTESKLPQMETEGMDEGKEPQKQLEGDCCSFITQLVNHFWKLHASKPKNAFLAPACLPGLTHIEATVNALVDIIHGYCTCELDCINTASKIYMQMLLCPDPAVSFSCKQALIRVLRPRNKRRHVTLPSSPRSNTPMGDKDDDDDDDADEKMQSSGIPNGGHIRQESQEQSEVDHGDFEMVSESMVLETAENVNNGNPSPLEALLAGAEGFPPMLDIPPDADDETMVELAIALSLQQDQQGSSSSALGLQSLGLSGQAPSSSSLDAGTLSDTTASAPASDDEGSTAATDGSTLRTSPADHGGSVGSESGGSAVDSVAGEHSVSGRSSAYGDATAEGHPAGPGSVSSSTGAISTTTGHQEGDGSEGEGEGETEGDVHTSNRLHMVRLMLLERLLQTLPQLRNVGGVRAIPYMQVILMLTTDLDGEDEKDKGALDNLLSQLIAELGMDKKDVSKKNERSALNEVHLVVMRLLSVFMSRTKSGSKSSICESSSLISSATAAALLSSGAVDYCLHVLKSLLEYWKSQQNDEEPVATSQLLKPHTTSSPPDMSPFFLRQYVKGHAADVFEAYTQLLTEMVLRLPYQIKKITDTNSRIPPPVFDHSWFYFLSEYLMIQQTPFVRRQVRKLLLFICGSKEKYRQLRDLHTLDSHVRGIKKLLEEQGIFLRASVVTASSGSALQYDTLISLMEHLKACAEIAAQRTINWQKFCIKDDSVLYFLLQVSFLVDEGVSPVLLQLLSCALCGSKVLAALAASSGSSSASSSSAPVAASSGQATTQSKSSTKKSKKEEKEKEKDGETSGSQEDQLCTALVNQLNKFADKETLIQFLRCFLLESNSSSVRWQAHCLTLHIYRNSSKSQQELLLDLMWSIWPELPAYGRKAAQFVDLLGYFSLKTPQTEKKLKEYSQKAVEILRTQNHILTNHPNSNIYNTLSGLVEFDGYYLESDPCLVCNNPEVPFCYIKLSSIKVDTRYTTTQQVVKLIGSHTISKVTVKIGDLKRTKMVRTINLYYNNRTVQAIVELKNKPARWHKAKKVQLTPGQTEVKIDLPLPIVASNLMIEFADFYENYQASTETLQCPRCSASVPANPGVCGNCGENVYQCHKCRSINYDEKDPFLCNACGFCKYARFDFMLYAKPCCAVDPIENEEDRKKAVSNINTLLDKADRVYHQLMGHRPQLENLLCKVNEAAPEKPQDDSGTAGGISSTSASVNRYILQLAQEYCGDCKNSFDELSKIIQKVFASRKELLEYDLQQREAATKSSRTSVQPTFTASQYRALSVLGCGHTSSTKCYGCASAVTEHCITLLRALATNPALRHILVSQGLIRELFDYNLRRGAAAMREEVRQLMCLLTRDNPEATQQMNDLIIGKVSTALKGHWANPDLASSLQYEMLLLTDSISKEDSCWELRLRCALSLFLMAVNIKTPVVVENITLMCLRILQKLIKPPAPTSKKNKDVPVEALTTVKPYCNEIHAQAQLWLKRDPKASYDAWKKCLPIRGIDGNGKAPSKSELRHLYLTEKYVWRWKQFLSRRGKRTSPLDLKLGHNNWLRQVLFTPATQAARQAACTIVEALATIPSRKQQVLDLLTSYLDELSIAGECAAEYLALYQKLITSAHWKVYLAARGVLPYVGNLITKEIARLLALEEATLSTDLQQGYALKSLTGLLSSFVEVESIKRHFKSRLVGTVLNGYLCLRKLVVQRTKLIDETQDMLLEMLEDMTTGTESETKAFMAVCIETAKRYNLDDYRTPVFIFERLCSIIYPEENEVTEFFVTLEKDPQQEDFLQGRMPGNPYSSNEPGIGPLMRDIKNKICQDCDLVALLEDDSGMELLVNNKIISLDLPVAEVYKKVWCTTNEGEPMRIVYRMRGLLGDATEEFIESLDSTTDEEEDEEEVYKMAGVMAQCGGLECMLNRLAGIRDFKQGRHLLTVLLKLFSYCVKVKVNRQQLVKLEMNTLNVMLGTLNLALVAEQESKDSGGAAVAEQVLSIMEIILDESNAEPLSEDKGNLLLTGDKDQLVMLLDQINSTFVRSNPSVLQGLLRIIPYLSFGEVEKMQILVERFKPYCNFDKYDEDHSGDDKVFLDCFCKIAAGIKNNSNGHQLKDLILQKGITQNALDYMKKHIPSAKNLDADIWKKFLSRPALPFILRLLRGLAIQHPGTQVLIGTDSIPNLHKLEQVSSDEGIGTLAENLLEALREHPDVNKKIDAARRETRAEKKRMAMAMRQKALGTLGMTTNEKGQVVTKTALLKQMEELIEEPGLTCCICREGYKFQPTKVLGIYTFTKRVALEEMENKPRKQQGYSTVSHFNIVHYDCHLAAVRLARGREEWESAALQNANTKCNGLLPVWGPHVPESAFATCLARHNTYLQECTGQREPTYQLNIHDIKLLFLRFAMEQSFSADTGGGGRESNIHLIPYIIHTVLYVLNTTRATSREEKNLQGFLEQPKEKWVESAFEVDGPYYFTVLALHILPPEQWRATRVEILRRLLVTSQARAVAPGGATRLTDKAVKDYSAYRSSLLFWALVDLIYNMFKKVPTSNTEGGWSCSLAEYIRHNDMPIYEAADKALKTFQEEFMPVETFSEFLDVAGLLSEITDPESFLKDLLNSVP

SMILES | tested on | test | system | setting | scale | endpoint | value
Cc1cc(C)c(CNC(=O)c2cc(Cl)c3c(c2C)O[C@@](C)([C@H]2CC[C@H](N(C)C)CC2)O3)c(=O)[nH]1 | – | – | human, relapsed/refractory NHL | concentration not given, all TEAEs, grade 5 | – | Hypophosphataemia incidence | 0%
O=C(c1ccc(F)c(F)c1Nc1ccc(I)cc1F)N1CC(O)([C@@H]2CCCCN2)C1 | – | – | human | oral, 1.33 mg/kg | – | onset day of second chorioretinopathy DLT | 22 days
COc1cc2c(Oc3ccc4[nH]c(C)cc4c3F)ccnc2cc1OCC1(N)CC1 | – | – | paediatric recurrent refractory sarcoma | concentration not given, whole group | – | grade 3 Hyperuricemia | 0%
COc1ccc([C@@H]2CC(=O)c3c(O)cc(O)cc3O2)cc1O | – | – | male Sprague-Dawley rat, lean | oral, 100 mg/kg of neohesperidin, 0 to 12 h | – | faecal excreted amount | 1150 ± 904 ng
O=S(=O)(CC1CS1)c1ccc(Oc2ccccc2)cc1 (racemic) | – | – | methanol | room temperature, together with: 10 equiv iodomethane, 1.1 equiv DBU and DBU·HCl | – | time to complete loss | ≤ 3 h
CO[C@H]1C[C@@H]2CC[C@@H](C)[C@@](O)(O2)C(=O)C(=O)N2CCCC[C@H]2C(=O)O[C@H]([C@H](C)C[C@@H]2CC[C@@H](OC(=O)NCCOCCOCCOCCOCCOCCOCCOCCOCCC(=O)N3CCc4cc(Cn5nc(-c6ccc7oc(N)nc7c6)c6c(N)ncnc65)ccc4C3)[C@H](OC)C2)C[C@@H](O)[C@H](C)/C=C(\C)[C@@H](O)[C@@H](OC)C(=O)[C@H](C)C[C@H](C)/C=C/C=C/C=C/1C | – | – | patients with advanced solid tumours | intravenous, 1.6 mg/3 mg weekly, any grade | – | incidence of Anemia TEAE | 60%
CC(=O)c1c(C)c2cnc(Nc3ccc(C4CCN(CCS(C)(=O)=O)CC4)cn3)nc2n(C2CCCC2)c1=O | – | – | human, plasma | oral, 75 mg, day 1 single dose | – | Tmax | 1.67 h
COc1ncnn2ccc(-c3cnc4nc(C)n(Cc5nnc([C@@H](C)F)o5)c4c3)c12 | – | – | human | oral, dose not given, grade 5 | – | patients with dysgeusia | 0%
CN1CC[C@@H](c2c(O)cc(O)c3c(=O)cc(-c4ccc(C(F)(F)F)cc4Cl)oc23)[C@@H]1CO | – | refers to: Chills | B-cell malignancies | oral, 200 mg, intermittent dosing | – | patients with adverse event | 0%
CC(C)(C)N1CCC(c2ccccc2)(c2ccccc2)CC1 | Vero-E6 | CellTiter-Glo ATP | – | 72 h, first round 5-point | baseline: DMSO 0%, hyamine -100%, more negative, more toxic | maximum response | -4.25%
C[C@]1(CO)Cc2ncn(-c3ccc(C#N)c(Cl)c3)c2C(=O)O1 | – | – | human | concentration not given, European food-effect part | – | disorders, nervous system, drug related | 25%
CCCN(CCC)CCNC(=O)c1cc(-c2ccc(Br)s2)nc2ccccc12 | Vero-E6 | CellTiter-Glo ATP | – | 72 h, retest 8-point duplicates | baseline: DMSO 0%, hyamine -100%, more negative, more toxic | maximum response | -17.5%
C[C@H]1CN(c2n[nH]c3nc(N[C@H]4CC[C@H](NS(=O)(=O)CCC(F)(F)F)CC4)ncc23)CCO1 | UBR4 (Homo sapiens, UniProt Q5T4S7) | inhibitor, Kinobeads competition profiling | – | 0.8 µM | baseline: vehicle | relative abundance | 1.12
N.N.[Cl][Pt][Cl] | – | – | mice, serum | dose not given | – | uric acid | 5.47 mg/dL
O=C1c2c(O)c(=O)ccn2N([C@@H]2c3ccccc3SCc3c2ccc(F)c3F)[C@@H]2COCCN12 | – | – | BALB/c mouse | subcutaneous, 8 mg/kg q24h | – | trough concentration | 9.52 ng/mL
CC(C)C[C@H](NC(=O)[C@H](CCCCN)NC(=O)OCC1c2ccccc2-c2ccccc21)C(=O)N[C@H](C(=O)N[C@@H](Cc1ccccc1)C(=O)N[C@@H](Cc1ccccc1)C(=O)N[C@@H](CCCCN)C(=O)NCC(=O)N[C@@H](Cc1ccccc1)C(=O)N[C@@H](C)C(=O)N[C@@H](Cc1c[nH]c2ccccc12)C(=O)N[C@@H](CC(N)=O)C(=O)N[C@H](C(=O)N[C@H]1CSSC[C@@H](C(=O)N[C@@H](Cc2c[nH]cn2)C(=O)N[C@@H](CCCNC(=N)N)C(=O)N[C@@H](CCCNC(=N)N)C(=O)N[C@@H](C)C(=O)N[C@@H](CC(N)=O)C(N)=O)NC(=O)[C@H](C(C)C)NC(=O)[C@H](CCCNC(=N)N)NC(=O)[C@H](C(C)C)NC(=O)CNC(=O)[C@H](CC(N)=O)NC(=O)[C@H](CCCNC(=N)N)NC(=O)[C@H](Cc2ccc(O)cc2)NC(=O)[C@H](C(C)C)NC1=O)C(C)C)C(C)C | – | – | ICR mice, blood | intraperitoneal, 10 mg/kg, day 5 | – | mean corpuscular volume | 40.7 ± 0.74 fL

Some of these lines once more:
SMILES | tested on | test | system | setting | scale | endpoint | value
COc1ccc([C@@H]2CC(=O)c3c(O)cc(O)cc3O2)cc1O | – | – | male Sprague-Dawley rat, lean | oral, 100 mg/kg of neohesperidin, 0 to 12 h | – | faecal excreted amount | 1150 ± 904 ng
O=S(=O)(CC1CS1)c1ccc(Oc2ccccc2)cc1 (racemic) | – | – | methanol | room temperature, together with: 10 equiv iodomethane, 1.1 equiv DBU and DBU·HCl | – | time to complete loss | ≤ 3 h
